Measurements pooled from the literature.
Lines come from different studies, so protocols differ. “And” joins repeats or separate records; there may be more than shown. ± marks the error that the study gave. Values after ≈ are worked out from the molar mass of the structure shown.

| SMILES | test | system | conditions | measurement | value |
| --- | --- | --- | --- | --- | --- |
| C[C@H]1COCCN1c1nc(NCc2cccnc2C(F)(F)F)c2cccnc2n1 |  | male CD-1 mouse, femur bone marrow | oral, 1000 mg/kg twice, 48 h | PCE per 200 erythrocytes | 111 and 97 and 76 |
| O=C(Nc1ccccc1)C1CCN(C(=O)Oc2cccnc2)CC1 | refers to: skin disorders | healthy women | oral, 100 mg, 9 days | subjects with adverse event | 7.7% |
| CC[C@H](C)[C@H](NC(=O)[C@H](Cc1ccccc1)NC(=O)[C@H](CCC(=O)O)NC(=O)[C@H](CCCNC(=N)N)NC(=O)[C@H](C)NC(=O)[C@H](C)NC(=O)[C@H](CCC(N)=O)NC(=O)[C@H](CCC(=O)O)NC(=O)[C@H](CCC(=O)O)NC(=O)[C@H](CC(C)C)NC(=O)[C@H](Cc1ccc(O)cc1)NC(=O)[C@H](CO)NC(=O)[C@H](CO)NC(=O)[C@@H](NC(=O)[C@H](CC(=O)O)NC(=O)[C@H](CO)NC(=O)[C@@H](NC(=O)[C@H](Cc1ccccc1)NC(=O)[C@@H](NC(=O)CNC(=O)[C@H](CCC(=O)O)NC(=O)[C@H](C)NC(=O)CCc1cnc[nH]1)[C@@H](C)O)[C@@H](C)O)C(C)C)C(=O)N[C@@H](C)C(=O)N[C@@H](Cc1c[nH]c2ccccc12)C(=O)N[C@@H](CC(C)C)C(=O)N[C@H](C(=O)N[C@@H](CCCNC(=N)N)C(=O)NCC(=O)N[C@@H](CCCNC(=N)N)C(=O)N[C@@H](CCCCNC(=O)COCCOCCNC(=O)COCCOCCNC(=O)CC[C@H](NC(=O)CCCCCCCCCCCCCCCCC(=O)O)C(=O)O)C(=O)NCC(=O)NCC(=O)N[C@@H](CO)C(=O)N[C@@H](CCCCNC(=O)[C@H](CCCCNC(=O)[C@H](CCCCNc1c(NCCCCCN(O)C(=O)CCC(=O)NCCCCCN(O)C(=O)CCC(=O)NCCCCCN(O)C(C)=O)c(=O)c1=O)Nc1c(NCCCCCN(O)C(=O)CCC(=O)NCCCCCN(O)C(=O)CCC(=O)NCCCCCN(O)C(C)=O)c(=O)c1=O)NC(=O)[C@H](CCCCNc1c(NCCCCCN(O)C(=O)CCC(=O)NCCCCCN(O)C(=O)CCC(=O)NCCCCCN(O)C(C)=O)c(=O)c1=O)Nc1c(NCCCCCN(O)C(=O)CCC(=O)NCCCCCN(O)C(=O)CCC(=O)NCCCCCN(O)C(C)=O)c(=O)c1=O)C(=O)O)C(C)C [zirconium-89 labelled] | ex vivo gamma counting | Sprague-Dawley rat, male, spleen | intravenous, 1 nmol, 24 h | tissue uptake | 0.992 %ID/g and 1.21 %ID/g and 1.16 %ID/g and 1.53 %ID/g and 1.11 %ID/g |
| O=C(c1ccc(F)c(F)c1Nc1ccc(I)cc1F)N1CC(O)([C@@H]2CCCCN2)C1 |  | patients aged sample A to sample B years | oral, dose not given | treatment-related adverse events | 86% |
| CC(C)n1c(C2CCNCC2)nc2c([N+](=O)[O-])c(Br)c(Br)cc21 | refers to: Nausea | AML patients | 125 mg | adverse events causing interruption | 2% |
| COc1cc2c(Oc3ccc4[nH]c(C)cc4c3F)ccnc2cc1OCC1(N)CC1 |  | paediatric recurrent refractory sarcoma | 12 mg | grade 1 or 2 Neutropenia | 27.3% |
| CC(=O)c1c(C)c2cnc(Nc3ccc(N4CCNCC4)cn3)nc2n(C2CCCC2)c1=O |  | C57BL/6 mice | intraperitoneal | maximum tolerated dose | 25 mg/kg |
| [O-][S+]1CCc2nc(N3CCC(c4ncc(Cl)cn4)CC3)nc(NC3(CO)CCC3)c21 (centres unmarked) |  | idiopathic pulmonary fibrosis patients | 18 mg twice daily | Somnolence adverse events | 10% |
| CCN1[C@@H](C(=O)NC23CCC(C(=O)O)(CC2)CC3)[C@H](c2cccc(Cl)c2F)[C@]2(C(=O)Nc3cc(Cl)ccc32)C12CCCCC2 |  | patients with advanced solid tumours | oral, 100 mg | nausea/vomiting incidence | 45.5% |
| Cn1cncc1-c1c(F)cncc1NC(=O)c1c(N)nn2cc(F)cnc12 |  | human patients | oral, 130 mg once daily | grade ≥3 anaemia incidence | 11% |
| CO[C@H]1C[C@@H]2CC[C@@H](C)[C@@](O)(O2)C(=O)C(=O)N2CCCC[C@H]2C(=O)O[C@H]([C@H](C)C[C@@H]2CC[C@@H](OC(=O)NCCOCCOCCOCCOCCOCCOCCOCCOCCC(=O)N3CCc4cc(Cn5nc(-c6ccc7oc(N)nc7c6)c6c(N)ncnc65)ccc4C3)[C@H](OC)C2)C[C@@H](O)[C@H](C)/C=C(\C)[C@@H](O)[C@@H](OC)C(=O)[C@H](C)C[C@H](C)/C=C/C=C/C=C/1C |  | patients with advanced solid tumours | intravenous, 16 mg weekly, any grade | maculopapular rash incidence | 25% |
| C[C@]1(CO)Cc2ncn(-c3ccc(C#N)c(Cl)c3)c2C(=O)O1 |  | human, European, plasma | single rising dose, range of means | apparent terminal t1/2 | 4.51 to 6.3 h |
| CN(C)CCCN1c2ccccc2CCc2ccccc21 |  | human whole blood | 1000 ng/mL, 60 min, 37 °C | blood-to-plasma ratio | 1.25 ± 0.105 |
| COc1ccc(C[C@@H]2NC(=O)[C@H]([C@@H](C)O)NC(=O)[C@@H]3[C@@H]4CCN3C(=O)[C@@H]3Cc5cn(c6ccc(F)cc56)CCCCCCN(Cc5ccc(cc5)CCNC(=O)[C@]5(C)CCCN5C2=O)C(=O)CCC(=O)N[C@@H](C)C(=O)N[C@H](CNC(=O)CCCCC[N+](C)(C)C)C(=O)N[C@@H](Cc2cccc(c2)CNC(=O)CO4)C(=O)N3)cc1 | refers to: respiratory tract irritation | human | dose not given | participants with adverse event | 2% |
| C[C@H]1C[C@@H](N2C(=N)N[C@](C)(c3cccc(NC(=O)c4cccc(C#N)c4)c3Cl)CC2=O)CCO1 |  | rat | 500 mg/kg, every other day | phosphorus change | -10% |
| COc1ncccc1-c1cnn2ccc(N3CCN(C(=O)OC(C)C)CC3)nc12 |  | rat, CCI cold allodynia model, plasma | oral, 3 mg/kg, 240 min | free drug concentration | 7.8 nM |
| CCCCCCCCCCCCCCCC(=O)N[C@@H](CCC(=O)NCCCC[C@H](NC(=O)[C@H](CC(=O)O)NC(=O)[C@H](CO)NC(=O)[C@@H](NC(=O)[C@H](Cc1ccccc1)NC(=O)[C@@H](NC(=O)CNC(=O)[C@H](CCC(N)=O)NC(=O)[C@H](CO)NC(=O)[C@@H](N)Cc1c[nH]cn1)[C@@H](C)O)[C@@H](C)O)C(=O)N[C@@H](CO)C(=O)N[C@@H](CCC(=O)O)C(=O)N[C@@H](Cc1ccc(O)cc1)C(=O)N[C@@H](CC(C)C)C(=O)N[C@@H](CC(=O)O)C(=O)N[C@@H](CO)C(=O)N[C@@H](CCC(=O)O)C(=O)N[C@@H](CCCNC(=N)N)C(=O)N[C@@H](C)C(=O)N[C@@H](CCCNC(=N)N)C(=O)N[C@@H](CC(=O)O)C(=O)N[C@@H](Cc1ccccc1)C(=O)N[C@H](C(=O)N[C@@H](C)C(=O)N[C@@H](Cc1c[nH]c2ccccc12)C(=O)N[C@@H](CC(C)C)C(=O)N[C@@H](CCC(=O)O)C(=O)N[C@@H](C)C(=O)NCC(=O)NCC(=O)O)C(C)C)C(=O)O | refers to: Headache | humans all renal groups | subcutaneous, 100 µg single dose | treatment-related adverse events | 16.2% |
| CN1CC[C@@H](c2c(O)cc(O)c3c(=O)cc(-c4ccc(C(F)(F)F)cc4Cl)oc23)[C@@H]1CO | refers to: Pneumonia | relapsed AML | oral, 200 mg, grade 3-4, intermittent dosing | patients with adverse event | 0% |
| CCN1CCN(Cc2ccc(Nc3ncc(F)c(-c4cc(F)c5nc6n(c5c4)[C@H](C)CCC6)n3)nc2)CC1 | Phase Ia dose escalation | patients with advanced solid tumours | dose not given, monotherapy, any grade | blood creatinine increased incidence | 75% |
| CCc1ccc(CC/C=C/c2ccc3c(c2)C(=O)CC3)cc1 |  | Sprague-Dawley rat, female, blood | oral, 30 mg/kg/day, 14 days | platelet distribution width | 48.1% |
| CC(C)C[C@H](NC(=O)[C@H](CCCCN)NC(=O)OCC1c2ccccc2-c2ccccc21)C(=O)N[C@H](C(=O)N[C@@H](Cc1ccccc1)C(=O)N[C@@H](Cc1ccccc1)C(=O)N[C@@H](CCCCN)C(=O)NCC(=O)N[C@@H](Cc1ccccc1)C(=O)N[C@@H](C)C(=O)N[C@@H](Cc1c[nH]c2ccccc12)C(=O)N[C@@H](CC(N)=O)C(=O)N[C@H](C(=O)N[C@H]1CSSC[C@@H](C(=O)N[C@@H](Cc2c[nH]cn2)C(=O)N[C@@H](CCCNC(=N)N)C(=O)N[C@@H](CCCNC(=N)N)C(=O)N[C@@H](C)C(=O)N[C@@H](CC(N)=O)C(N)=O)NC(=O)[C@H](C(C)C)NC(=O)[C@H](CCCNC(=N)N)NC(=O)[C@H](C(C)C)NC(=O)CNC(=O)[C@H](CC(N)=O)NC(=O)[C@H](CCCNC(=N)N)NC(=O)[C@H](Cc2ccc(O)cc2)NC(=O)[C@H](C(C)C)NC1=O)C(C)C)C(C)C |  | ICR mouse, blood | intramammary, 10 mg/kg, day 5, 3 d dosing | ALT | 48.3 ± 1.69 IU/L |
| OB(O)CSc1nc2ccccc2n1Cc1ccc(C(F)(F)F)cc1C(F)(F)F |  | mouse, plasma | subcutaneous, 25 mg/kg, 8 h | concentration | 3900 ng/mL |
| CCCCCOc1ccc(-c2ccc(-c3ccc(C(=O)N[C@H]4C[C@@H](O)[C@@H](OCC[N+](C)(C)C)NC(=O)[C@@H]5[C@@H](O)[C@@H](C)CN5C(=O)[C@H]([C@@H](C)O)NC(=O)[C@H]([C@H](O)[C@@H](O)c5ccc(O)cc5)NC(=O)[C@@H]5C[C@@H](O)CN5C(=O)[C@H]([C@@H](C)O)NC4=O)cc3)cc2)cc1 |  | adult patients not in ICU, plasma | intravenous, 400 mg loading, after first dose, median | AUC(0-168 h) | 788 µg·h/mL |
| c1csc(CNc2cc[nH]n2)c1 | micronucleus | CD-1 mouse Hsd:ICR(CD-1), male, bone marrow | oral, 500 mg/kg/day, 3 days | PCE to total erythrocyte ratio | 0.505 |
| COc1ccc(C(=O)Nc2ccc3c(c2)C=CCP(=O)(O)O3)cc1 | HPLC-UV | 50 mM PBS | 16 h, pH 7.4, 25 °C, upper limit 2.5 mg/mL | kinetic solubility | 2430 µg/mL (≈ 7.04 mM) |
| C[C@@H](c1nc(-c2ccc(C#N)cc2)cs1)[C@](O)(Cn1cncn1)c1cc(F)ccc1F | refers to: investigations (SOC) | humans | oral, dose not given, added: midazolam | subjects with TEAEs | 8.7% |

Repeated from above:
| SMILES | test | system | conditions | measurement | value |
| --- | --- | --- | --- | --- | --- |
| CCN1CCN(Cc2ccc(Nc3ncc(F)c(-c4cc(F)c5nc6n(c5c4)[C@H](C)CCC6)n3)nc2)CC1 | Phase Ia dose escalation | patients with advanced solid tumours | dose not given, monotherapy, any grade | blood creatinine increased incidence | 75% |
| CCc1ccc(CC/C=C/c2ccc3c(c2)C(=O)CC3)cc1 |  | Sprague-Dawley rat, female, blood | oral, 30 mg/kg/day, 14 days | platelet distribution width | 48.1% |
